Experimental data pooled from the literature.
± gives the spread as reported.
TDP1: Tyrosyl-DNA phosphodiesterase 1 (TDP1, Homo sapiens, UniProt Q9NUW8)
UniProt Q9NUW8, sequence (whole entry, looked up): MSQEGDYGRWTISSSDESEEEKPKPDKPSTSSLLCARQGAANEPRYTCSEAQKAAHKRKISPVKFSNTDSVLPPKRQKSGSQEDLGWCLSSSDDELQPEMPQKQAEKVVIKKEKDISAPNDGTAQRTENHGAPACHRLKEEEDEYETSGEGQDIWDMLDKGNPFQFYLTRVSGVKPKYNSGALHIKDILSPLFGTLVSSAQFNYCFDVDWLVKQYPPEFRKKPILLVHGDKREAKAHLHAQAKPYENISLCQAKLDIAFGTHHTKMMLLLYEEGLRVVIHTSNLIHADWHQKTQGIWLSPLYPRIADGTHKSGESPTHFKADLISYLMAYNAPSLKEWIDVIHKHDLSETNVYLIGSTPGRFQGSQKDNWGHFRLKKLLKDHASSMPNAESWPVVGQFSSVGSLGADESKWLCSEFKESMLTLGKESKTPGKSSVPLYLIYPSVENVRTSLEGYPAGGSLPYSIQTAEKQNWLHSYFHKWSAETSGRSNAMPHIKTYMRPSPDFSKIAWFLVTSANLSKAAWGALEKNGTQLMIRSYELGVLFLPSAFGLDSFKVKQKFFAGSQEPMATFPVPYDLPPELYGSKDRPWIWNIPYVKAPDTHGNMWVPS

For `O=C(O)c1ccc(Nc2c(-c3ccccc3)nc3ccc(CON=Cc4nc(-c5ccccc5)[nH]c4Cl)cn23)cc1`, the inhibition was 51.5% (TDP1; enzyme activity, inhibitor; 100 µM, unpurified compound).
The inhibition of `Cc1[nH]nc2c1N=C(c1ccccc1Cl)c1cnc(N3CCOCC3)cc1N2` is reported as -6% (phorbol ester binding site, mouse; radioligand binding; 10 µM).
The inhibition of `O=C(O)c1ccc(Nc2c(-c3ccccc3)nc3ccc(CON=CC4=C(Cl)c5ccccc5CC4)cn23)cc1` (mixture of isomers) is reported as 47.5% (TDP1; enzyme activity, inhibitor; 100 µM, unpurified compound).
`CNC(=O)C1CCN(c2cc(C)c(F)cc2NC(=O)c2ccc(-c3cc(O)ccc3C)c(C)c2)CC1` — result for “percent of control”: 74% (FLT3 ITD F691L (human); binding, KINOMEscan; 1000 nM).
`CCC(=O)N(C)c1ccc(Cl)c(Cl)c1` has an inhibition of under 10% (central benzodiazepine receptor; radioligand binding; 10 µM).
For `Nc1ncc(-c2cc(-c3cnn(CC(F)(F)F)c3)ncc2F)nc1C(=O)NC1CNCC(F)C1` (stereo not drawn), the remaining binding was 83% (TGFBR1; KINOMEscan; 1 µM; baseline: DMSO control).
Under “log2 fold change”, `c1ccc(-c2n[nH]cc2-c2ccnc3ccccc23)nc1` is recorded as -0.08 (MCK1 (Candida albicans); kinase binding, MIB/MS competition; Candida albicans lysate; 10 µM; baseline: DMSO).
The blocking of `Cc1nc(N)nc2c1C(=O)N[C@@H](c1ccc(F)cc1-c1cccc(OCCF)n1)C2` is reported as 96 ± 0.3% (Hsp90; in vitro autoradiography; U87 tumour slice; 11 kBq/mL, room temperature, together with: blocker 10 µM).
`CC(=O)c1cnc(N)nc1N1CC[C@H]1c1nn2ccc(Cl)c2c(=O)n1-c1ccccc1` gave a binding of 85.5% (PI3Kγ; KiNativ; dog white blood cell lysate; 1 µM).
For `C=CC(=O)Nc1cccc(Cn2ncc3cnc(Nc4cnn(CCOC)c4)nc32)c1`, “percent of control” read 94% (EPHB4 human; binding, KINOMEscan; 100 nM; lower = stronger binding).
`O=C(Nc1cc(OCCN2CCCC2)c2ccccc2n1)c1cccc(C(=O)Nc2cc(OCCN3CCCC3)c3ccccc3n2)n1` gave a ΔTm of 12.1 ± 0.9 K (c-kit2 G-quadruplex DNA; FRET melting; 1 µM, pH 7.4, together with: 60 mM potassium).
For `C=CC(=O)N1[C@@H](c2ccc3c(c2)OCO3)c2[nH]c3ccccc3c2C[C@H]1C(=O)N1CCN(C)CC1`, the relative co-enrichment was 125% (human cyclin E1 N112C-3xFLAG:CDK2; co-IP with TMT proteomics, measured: DHX9; concentration not given, Q08211; baseline: wild type DMSO).
